# Published values pooled from the literature.
# Each line is one published result; not all experiments were run side by side.
# Cell line: PANC-1
SMILES,observed,technique,time,setting,IC50
COCCOc1cc2ncnc(Nc3cccc(-c4cn(-c5ccccc5S(N)(=O)=O)nn4)c3)c2cc1OCCOC,cell proliferation,CCK-8,72 h,hypoxia,57.1 µM
N=C(N/N=C/c1cc2ccccc2c2ccccc12)N/N=C/c1cc2ccccc2c2ccccc12,cell growth or viability,crystal violet,72 h,,151 µM
CCCCCCCCCCCCCCOC(=O)Nc1ccn([C@@H]2O[C@H](CO)[C@@H](O)C2(F)F)c(=O)n1,cell growth or viability,MTT,48 h,,12 µM
N=C(N/N=C/c1cc2ccccc2[nH]1)N/N=C/c1cc2ccccc2[nH]1,cell growth or viability,crystal violet,72 h,,7.01 µM
CCOC(=O)C1=CN([C@@H]2O[C@H](CO)[C@@H](O)[C@H]2O)C=CC1,cell growth or viability,CCK-8,,,121 µM
C=C1CC(O)CC(C)=CCC2C1CC2(C)O (centres unmarked),cell growth or viability,CCK-8,72 h,,> 50 µM
N=C(N/N=C/c1cncnc1)N/N=C/c1cncnc1,cell growth or viability,crystal violet,72 h,,114 µM
Cc1nc(Nc2ncc(C(=O)Nc3c(C)cccc3Cl)s2)cc(N2CCN(CCOC(=O)[C@@H](N)CCCNC(=N)N)CC2)n1,cell growth or viability,MTT,72 h,,2.06 µM
CCCCn1cc(C(=O)O)c(=O)c2cc(F)c(Nc3ccc(OC)cc3)c([N+](=O)[O-])c21,cell growth,sulforhodamine B,72 h,,> 200 µg/mL
N=C(N/N=C/c1ccc2ccc3cccc4ccc1c2c34)N/N=C/c1ccc2ccc3cccc4ccc1c2c34,cell growth or viability,crystal violet,72 h,,240 µM
c1ccc(-c2cc(-c3ccc(-n4cc(-c5ccc(-c6cccs6)s5)nn4)cc3)cc(-c3ccccn3)n2)nc1,cell growth or viability,MTS,72 h,,2.22 µM
CCCCCCCCCCCCCCCC(=O)OCCN1CCN(c2cc(Nc3ncc(C(=O)Nc4c(C)cccc4Cl)s3)nc(C)n2)CC1,cell viability,MTT,72 h,,0.716 µM
C=C1CCC(O)C(C)=CCC2C1CC2(C)C(=O)C=CC(C)(C)O (centres unmarked),cell growth or viability,CCK-8,72 h,,~19.1 µM
Cc1nc(Nc2ncc(C(=O)Nc3c(C)cccc3Cl)s2)cc(N2CCN(CCOC(=O)[C@@H](N)CS)CC2)n1,cell growth or viability,MTT,72 h,,> 100 µM
CCCCCCCCn1c2ccccc2c2cc(-c3cn(-c4ccc(-c5cc(-c6ccccn6)nc(-c6ccccn6)c5)cc4)nn3)ccc21,cell growth or viability,MTS,72 h,,3.59 µM
O=[N+]([O-])c1ccc(/N=N/c2ccc(O)c(O)c2)cc1,cell growth or viability,resazurin,72 h,,2.52 µM
Cc1cc(C)cc(/C=N/NC(=N)N/N=C/c2cc(C)cc(C)c2)c1,cell growth or viability,crystal violet,72 h,,56.2 µM
C=C1CC[C@@H]2O[C@@]2(C)CC[C@H]2[C@H]1C[C@]2(C)C(=O)/C=C/C(C)(O)COC(C)=O (some centres unmarked),cell growth or viability,CCK-8,72 h,,5.24 µM
N=C(N/N=C/c1ncc[nH]1)N/N=C/c1ncc[nH]1,cell growth or viability,crystal violet,72 h,,9.7 µM
Cc1c(-c2cccc(C3=NCCN3)c2)oc(-c2cccc(C3=NCCN3)c2)c1C,cell growth or viability,SRB,,,0.5 µM

# Excerpt of the above:
SMILES,observed,technique,time,setting,IC50
CCCCn1cc(C(=O)O)c(=O)c2cc(F)c(Nc3ccc(OC)cc3)c([N+](=O)[O-])c21,cell growth,sulforhodamine B,72 h,,> 200 µg/mL
N=C(N/N=C/c1cncnc1)N/N=C/c1cncnc1,cell growth or viability,crystal violet,72 h,,114 µM
O=[N+]([O-])c1ccc(/N=N/c2ccc(O)c(O)c2)cc1,cell growth or viability,resazurin,72 h,,2.52 µM
